Experimental data pooled from the literature.
Compare with care: the assays were run in different laboratories. Numbers after ± are the reported error.

SMILES | method | sample | concentration | pH | temperature | notes | logP
CN(CCCN=Cc1ccccc1O)CCN(C)CCCN=Cc1ccccc1O | – | 1-octanol/saline | – | pH 7.4 | – | 67Ga complex | 1.59 ± 0.03
CC[P+](CC)(CC)[Au-][S][C@@H]1O[C@H](COC(C)=O)[C@H](OC(C)=O)[C@H](OC(C)=O)[C@H]1OC(C)=O | – | n-octanol/water | – | – | – | – | 0.38
CCC1=C(CC)C2=[N+]3C1=Cc1c(CC)c(CC)c4[n]1[Ir-3]31([C]#[N+]c3ccc(OC)cc3)([C]#[N+]c3ccc(OC)cc3)[n]3c(c(CC)c(CC)c3=CC3=[N+]1C(=C4)C(CC)=C3CC)=C2.F[B-](F)(F)F | ICP-MS | n-octanol/saline | – | – | – | – | 3.11
CC1=C2[O][Ru-]([Cl])[O+]=C2C=CN1CCCN1C=CC2=[O+][Ru-]([Cl])[O]C2=C1C.Cc1ccc(C(C)C)cc1.Cc1ccc(C(C)C)cc1 | shake flask, ICP-MS | n-octanol/water | – | – | – | aqua complex | -1.39
O=C([O-])CN1CCN(CC(=O)[O-])CCN(CC(=O)[O-])C(Cc2ccc(NC(=S)NCCc3ccc4c(c3)C3C=CCC3C(c3cc5c(cc3Br)OCO5)N4)cc2)CN(CC(=O)[O-])CC1.[111In+3] (stereo not drawn) | – | octanol/water | – | – | – | In(III) complex | 5.2 ± 0.3
CN(C)C(=O)c1ccc(COC(=O)N[c-]2cccc2)cc1.[Fe+2].c1cc[cH-]c1 | RP-TLC | MOPS/acetonitrile | – | pH 7.4 | – | – | 3.36 ± 0.11
CC1=C2[O][Ru-]([Cl])[O+]=C2C=CN1CCCCCCN1C=CC2=[O+][Ru-]([Cl])[O]C2=C1C.Cc1ccc(C(C)C)cc1.Cc1ccc(C(C)C)cc1 | shake flask, UV-vis | n-octanol/water | – | – | – | aqua complex | -1.34
CC[P+](c1ccc(C)cc1)(c1ccc(C)cc1)c1ccc(C)cc1 | shake flask, HPLC | 1-octanol/water | – | – | – | – | -0.5 ± 0.05
CCOC(=O)c1[nH]c(C)c(/C=C/C2=[N+]3C(=C(c4cc(OC)cc(OC)c4)c4c(C)c(I)c(/C=C/c5c(C)[nH]c(C(=O)OCC)c5C)n4[B-]3(F)F)C(C)=C2I)c1C | – | octanol/HEPES buffer | – | pH 7.4 | room temperature | – | 1.88
COCCOCCOCCOCCOCCOCCOCCOCCOCCOCCOCCOCCNC(=O)CCc1ccc(N(c2ccc(CCC(=O)NCCOCCOCCOCCOCCOCCOCCOCCOCCOCCOCCOCCOC)cc2)c2ccc(-c3c4c(c(-c5ccc(N(c6ccc(CCC(=O)NCCOCCOCCOCCOCCOCCOCCOCCOCCOCCOCCOCCOC)cc6)c6ccc(CCC(=O)NCCOCCOCCOCCOCCOCCOCCOCCOCCOCCOCCOCCOC)cc6)cc5)c5nsnc35)N=S=N4)cc2)cc1 | shake flask | n-octanol/water | – | – | – | – | -1.47
Brc1ccc2nc3c4ccc[n+]5c4c4c(ccc[n+]4[Ru-4]546([n+]5ccccc5-c5cccc[n+]54)[n+]4ccccc4-c4cccc[n+]46)c3nc2c1.[O-][Cl+3]([O-])([O-])[O-].[O-][Cl+3]([O-])([O-])[O-] | – | octanol/water | – | – | room temperature | – | -1.58
O=C(OCc1ccc(B(O)O)cc1)N(Cc1cccc(CN2CCCCC2)c1)[c-]1cccc1.[Fe+2].c1cc[cH-]c1 | RP-TLC | MOPS/acetonitrile | – | pH 7.4 | – | – | 6.09 ± 0.03
CC(C)[P+](c1ccccc1)(c1ccccc1)c1ccccc1 | HPLC | octanol/water | 100 µM | – | – | – | -1.28 ± 0.01
CCCC[P+](CCCC)(CCCC)CCCC.Cc1ccc(S(=O)(=O)[N-]C(=O)NN2CC3CCCC3C2)cc1 (stereo not drawn) | shake-flask | n-octanol/water | – | – | 37 °C | – | 1.36 ± 0.03
Cc1c(C)c(C)[c-](C)c1C.O=C1c2cccc[n+]2[Ir]([Cl])[N]1CCCCCCCCCC[P+](c1ccccc1)(c1ccccc1)c1ccc2ccc3cccc4ccc1c2c34.[Br-] | shake-flask | octanol/PBS | – | – | – | – | 1.21 ± 0.09

For quick reference, copied from above:
SMILES | method | sample | concentration | pH | temperature | notes | logP
COCCOCCOCCOCCOCCOCCOCCOCCOCCOCCOCCOCCNC(=O)CCc1ccc(N(c2ccc(CCC(=O)NCCOCCOCCOCCOCCOCCOCCOCCOCCOCCOCCOCCOC)cc2)c2ccc(-c3c4c(c(-c5ccc(N(c6ccc(CCC(=O)NCCOCCOCCOCCOCCOCCOCCOCCOCCOCCOCCOCCOC)cc6)c6ccc(CCC(=O)NCCOCCOCCOCCOCCOCCOCCOCCOCCOCCOCCOCCOC)cc6)cc5)c5nsnc35)N=S=N4)cc2)cc1 | shake flask | n-octanol/water | – | – | – | – | -1.47
